Assay results gathered from unrelated publications.
Each numbered part is a random draw from the data of one study; scales do not carry over between parts. Values joined by “and” are separate records of one study, mostly repeats; a detail may differ.
Sequence of UniProt Q15349 (whole entry, looked up): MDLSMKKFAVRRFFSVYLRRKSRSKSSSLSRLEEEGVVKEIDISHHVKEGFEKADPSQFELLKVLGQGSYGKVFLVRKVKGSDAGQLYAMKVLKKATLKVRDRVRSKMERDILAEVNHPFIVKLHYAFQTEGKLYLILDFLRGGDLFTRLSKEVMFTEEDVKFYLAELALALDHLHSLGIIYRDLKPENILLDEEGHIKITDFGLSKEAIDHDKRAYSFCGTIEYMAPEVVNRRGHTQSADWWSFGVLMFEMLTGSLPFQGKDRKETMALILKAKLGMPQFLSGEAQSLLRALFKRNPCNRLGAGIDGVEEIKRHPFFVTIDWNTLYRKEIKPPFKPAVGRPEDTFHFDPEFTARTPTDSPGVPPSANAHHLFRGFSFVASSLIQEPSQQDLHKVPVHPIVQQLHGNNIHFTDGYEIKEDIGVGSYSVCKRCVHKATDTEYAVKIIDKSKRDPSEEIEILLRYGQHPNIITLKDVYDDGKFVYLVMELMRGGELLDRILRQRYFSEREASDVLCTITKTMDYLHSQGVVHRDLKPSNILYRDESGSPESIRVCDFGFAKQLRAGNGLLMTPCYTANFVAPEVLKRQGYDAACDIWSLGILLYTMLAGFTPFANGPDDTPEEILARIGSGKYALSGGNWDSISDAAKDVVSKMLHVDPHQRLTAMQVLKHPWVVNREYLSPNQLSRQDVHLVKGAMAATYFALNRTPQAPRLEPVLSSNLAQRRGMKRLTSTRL
Sequence of UniProt Q5BJF2 (whole entry, looked up): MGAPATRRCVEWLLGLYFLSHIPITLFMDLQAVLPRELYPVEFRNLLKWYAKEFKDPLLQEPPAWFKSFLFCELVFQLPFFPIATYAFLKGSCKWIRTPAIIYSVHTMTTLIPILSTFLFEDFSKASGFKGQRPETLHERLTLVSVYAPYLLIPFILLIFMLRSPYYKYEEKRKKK
Sequence of UniProt P35372 (whole entry, looked up): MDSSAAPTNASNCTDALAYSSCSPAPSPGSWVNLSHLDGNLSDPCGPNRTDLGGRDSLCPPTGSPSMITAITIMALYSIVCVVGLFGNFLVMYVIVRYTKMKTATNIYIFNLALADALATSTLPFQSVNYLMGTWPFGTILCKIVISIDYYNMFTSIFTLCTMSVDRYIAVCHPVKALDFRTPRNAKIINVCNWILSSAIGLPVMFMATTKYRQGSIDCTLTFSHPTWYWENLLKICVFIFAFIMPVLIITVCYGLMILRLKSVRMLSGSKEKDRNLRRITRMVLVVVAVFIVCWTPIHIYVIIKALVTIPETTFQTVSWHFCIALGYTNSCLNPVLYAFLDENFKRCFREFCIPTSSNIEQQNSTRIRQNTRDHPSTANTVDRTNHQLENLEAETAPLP
Sequence of UniProt P9WI81 (whole entry, looked up): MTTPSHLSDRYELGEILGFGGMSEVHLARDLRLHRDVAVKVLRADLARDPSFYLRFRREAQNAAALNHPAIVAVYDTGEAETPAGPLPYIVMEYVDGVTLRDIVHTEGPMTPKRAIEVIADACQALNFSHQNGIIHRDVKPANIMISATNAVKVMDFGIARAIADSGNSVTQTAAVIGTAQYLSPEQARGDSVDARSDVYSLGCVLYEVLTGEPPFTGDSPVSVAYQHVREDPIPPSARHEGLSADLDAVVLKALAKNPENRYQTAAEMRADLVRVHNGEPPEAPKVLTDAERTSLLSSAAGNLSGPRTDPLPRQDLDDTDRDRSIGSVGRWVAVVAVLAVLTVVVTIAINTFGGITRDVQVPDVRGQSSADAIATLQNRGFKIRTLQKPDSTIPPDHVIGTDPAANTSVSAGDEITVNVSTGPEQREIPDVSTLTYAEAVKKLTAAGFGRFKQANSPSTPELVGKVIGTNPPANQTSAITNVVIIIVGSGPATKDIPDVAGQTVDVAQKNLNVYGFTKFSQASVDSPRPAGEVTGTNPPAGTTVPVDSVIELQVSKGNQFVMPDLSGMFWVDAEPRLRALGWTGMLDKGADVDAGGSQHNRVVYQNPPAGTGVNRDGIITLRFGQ

Study 1 — cell line: mouse MPNST tumor cells; technique: high-content nuclear imaging; refers to: cell number; concentration: 10 µM; time: 12 h; setting: mean of 2 replicates; baseline: plate mean; direction: higher = more cells
SMILES	nuclei count
NC(=O)CN1CCCC1=O	0.398 z-score
O=C(O)CCCc1ccc(N(CCCl)CCCl)cc1	2.22 z-score
COc1ccc(CNC(=O)C=Cc2ccc3[nH]cc(CCN(C)C)c3c2)cc1	3.36 z-score
CN1CC2CN(c3ccc(-c4ccccc4)nn3)CC2C1 (stereo not shown)	2.7 z-score
O=C(O)CNC(=O)c1c(O)c2ccccc2n(Cc2ccccc2)c1=O	2.47 z-score

Study 2 — organism: Cryptosporidium parvum; technique: time-kill; cells: HCT-8; strain: nanoluciferase-expressing; baseline: DMSO control
SMILES: CNC(=O)c1ccc(-c2cnn3ccc(C(=O)N(C)c4ccc(Cl)c(C(=O)OC)c4)cc23)cc1
concentration	time	luminescence remaining
0.00914 µM	8 h	68.9% and 79.2%
0.00914 µM	4 h	111% and 113%
0.02743 µM	48 h	9.39% and 11.2%
0.00914 µM	48 h	15.3% and 15.1%
0.00305 µM	8 h	80.9% and 77.2%
6.667 µM	24 h	46.4% and 44.2%

Study 3 — cell line: A-375; concentration: 100 µM; time: 36 h
Compound	viability [%]
COC[C@@H](NC(C)=O)C(=O)NCc1ccccc1	111
CCC1(c2ccc(N)cc2)CCC(=O)NC1=O (stereo not shown)	105
CC(C)C(Br)C(=O)NC(N)=O (stereo not shown)	98
CC(C)(C)NCC(O)c1ccccc1Cl (stereo not shown)	87.3
CC(C)(C)c1cc(C(C)(C)C)c(NC(=O)c2c[nH]c3ccccc3c2=O)cc1O	2.55
NC(=O)CN1CC(O)CC1=O (stereo not shown)	106
COc1ccc(C(=O)N2CCCC2=O)cc1	117
O=c1[nH]c2ccccc2n1C1CCN(CCCC(c2ccc(F)cc2)c2ccc(F)cc2)CC1	1.45
C[C@H]1CC(=O)C[C@@H]2CC[C@H]3[C@@H]4CC[C@H](O)[C@@]4(C)CC[C@@H]3[C@]21C	14.6
CN1CCc2cc3c(cc2[C@H]1[C@@H]1OC(=O)c2c1ccc1c2OCO1)OCO3	91.3

Other studies, line by line
Structure (SMILES)	target	observed	technique	concentration	quantity	result
O=C(NCc1ncc(C(F)(F)F)cc1Cl)c1ccc2c(c1)C1(CCS(=O)(=O)CC1)[C@H](C1CC1)N2S(=O)(=O)c1ccc(F)cc1	OPRM1 (Homo sapiens, UniProt P35372)	ligand displacement	–	10 µM	inhibition	29.1%
O=C(NS(=O)(=O)c1ccc(NCC2CCOCC2)c([N+](=O)[O-])c1)c1ccc(N2CCN(Cc3ccc(C(F)(F)F)cc3-c3ccc(Cl)cc3)CC2)cc1Oc1cnc2[nH]ccc2c1	pknB (Mycobacterium tuberculosis, UniProt P9WI81)	cell-free assay	competition with immobilised ligand	1 µM	remaining binding	90%
Cc1cc(C)c(-n2ccn3nc(-c4cccnc4)cc23)cc1NC(=O)c1cc(C#N)cc(S(F)(F)(F)(F)F)c1	Ribosomal protein S6 kinase alpha-2, N-terminal kinase domain (RPS6KA2, Homo sapiens, UniProt Q15349)	cell-free assay	competition with immobilised ligand	0.1 µM	remaining binding	90.9%
CNC(=O)c1cc(C(=O)NC2CC2)cn(Cc2ccccc2)c1=O	TMEM97 (Homo sapiens, UniProt Q5BJF2)	binding	radioligand binding	10 µM	inhibition	7.83%

Excerpt of the above (study 2):
concentration	time	luminescence remaining
0.00914 µM	4 h	111% and 113%
0.02743 µM	48 h	9.39% and 11.2%
0.00914 µM	48 h	15.3% and 15.1%
